Assay results collected from several papers.
Compare with care: the assays were run in different laboratories. Several values in a cell are separate wells, animals, samples, runs or records. Numbers after ± are the reported error.

| Structure (SMILES) | tested on | assay | test system | setting | endpoint | result |
| --- | --- | --- | --- | --- | --- | --- |
| OO | Histone acetyltransferase GCN5, with Ada2 and Ada3 (Saccharomyces cerevisiae S288c, UniProt Q03330) | enzyme activity |  | 1 mM, with: Gcn5-Ada2-Ada3 complex, with DTT | inhibition | 22 ± 10% |
| COc1ccccc1OCCNCC(O)COc1cccc2[nH]c3ccccc3c12 (centres unmarked) | Trypanothione synthetase (Trypanosoma brucei brucei, UniProt Q586P2) | enzyme activity, inhibitor, phosphate release |  | 25 µM | inhibition | 23.7 ± 6.4% |
| CN(Cc1cccnc1)C(=O)c1ccc([C@H]2[C@@H](F)[C@@H](F)C[C@@H](F)[C@H]2F)cc1 |  | liver microsome stability | cynomolgus liver microsomes | 1 µM | hepatic clearance | 21 mL/min/kg |
| Cc1nn(-c2nc3ccccc3[nH]2)c(O)c1C(c1ccccc1C(=O)O)c1c(C)nn(-c2nc3ccccc3[nH]2)c1O | Cyclic GMP-AMP synthase (CGAS, Homo sapiens, UniProt Q8N884) | enzyme activity, inhibitor, PPiase-coupled |  | 12.5 µM, 1.5 h | inhibition | 74.2% |
| C[C@@H]1CCO[C@H]2Cn3cc(C(=O)NCc4ccc(F)cc4F)c(=O)c(O)c3C(=O)N12 | Solute carrier family 22 member 3 (SLC22A3, Homo sapiens, UniProt O75751) | transport | MDCK-II, transfected | 0.3 µM, with: MPP+ 2 µM | inhibition | 7.13% |
| CNc1ccc(-c2nc3ccc(O)cc3s2)cc1 | Amyloid-beta precursor protein, amyloid-beta (APP, Homo sapiens, UniProt P05067) | binding, competition binding | amyloid-beta aggregates | 3.704 nM, with: tritiated amyloid ligand | inhibition | 54.2% and 53% |
| C#Cc1cc(-c2cc(Nc3nc(N[C@@H](C)c4ccc(F)cn4)ncc3Cl)n[nH]2)ccc1C=O | High affinity nerve growth factor receptor (NTRK1, Homo sapiens, UniProt P04629, G595R/G667A) | enzyme activity, inhibitor |  | 0.2 µM | inhibition | 107% |
| O=C(Nc1cccc2c(=O)cc(-c3nnn[nH]3)oc12)c1ccc(OCCCCc2ccccc2)cc1 | Volume-regulated anion channel subunit LRRC8C, part LRRC8A IL1 chimera (LRRC8C, Homo sapiens, UniProt Q8TDW0) | ion current, inhibitor, whole-cell patch clamp | HCT LRRC8-/- cells, transfected | 3 µM, low ionic strength swelling, -100 mV | inhibition | 65.8% and 54.6% and 23.9% and 35.8% |
| O=C(NCC1CCOCC1)c1ccc([C@H]2[C@@H](F)[C@@H](F)C[C@@H](F)[C@H]2F)cc1 |  | liver microsome stability | dog liver microsomes | 1 µM | hepatic clearance | 10 mL/min/kg |
| CN1CCN(c2cc(-c3ccncc3)c(-c3ccc4ccccc4c3)nn2)CC1 | Extracellular calcium-sensing receptor (CASR, Homo sapiens, UniProt P41180) | antagonist, FLIPR |  | 10 µM | inhibition | 40.4% |
| CC[C@@H]1[C@H](F)C(=O)N[C@@H]1COc1nccc2cc(C(N)=O)c(OC)cc12 | Phosphatidylinositol 4,5-bisphosphate 3-kinase catalytic subunit beta isoform (PIK3CB, Homo sapiens, UniProt P42338) | ATP-site probe binding, ActivX profiling | THP-1 cell lysate | 0.01 mM | inhibition | -2.4% |

For quick reference, copied from above:
| Structure (SMILES) | tested on | assay | test system | setting | endpoint | result |
| --- | --- | --- | --- | --- | --- | --- |
| O=C(Nc1cccc2c(=O)cc(-c3nnn[nH]3)oc12)c1ccc(OCCCCc2ccccc2)cc1 | Volume-regulated anion channel subunit LRRC8C, part LRRC8A IL1 chimera (LRRC8C, Homo sapiens, UniProt Q8TDW0) | ion current, inhibitor, whole-cell patch clamp | HCT LRRC8-/- cells, transfected | 3 µM, low ionic strength swelling, -100 mV | inhibition | 65.8% and 54.6% and 23.9% and 35.8% |
